Assay results pooled from the literature.
Protocols differ between the studies behind these lines.
Cell line: HCT-15

`COc1cccc(CNc2nc(NCc3ccccc3)c3ccccc3n2)c1` gave a GI50 of 3.9 µM (cell growth or viability; 72 h).
With `COc1cc(/C=C/C(=O)/C=C(O)/C=C/c2ccc(OCC(=O)N3CCOCCOCCOCCOCCOCC3)c(OC)c2)ccc1OCC(=O)N1CCOCCOCCOCCOCCOCC1` the inhibition was 15.7% (cell growth or viability, SRB; 5 µM).
`Clc1cccc(Nc2nc(NCc3ccccc3)c3ccccc3n2)c1` has a GI50 of 5 µM (cell growth or viability; 24 h).
`COc1cc(CNC(=O)C[C@H](C)CCC=C(C)C)ccc1OCc1cn(-c2ccccc2F)nn1` has a growth percent of 82.8% (SRB; 10 µM, 48 h).
For `FC(F)(F)c1ccc(CNc2nc(NCc3ccccc3)c3ccccc3n2)cc1`, the GI50 was 2 µM (cell growth or viability; 72 h).
The GI50 of `CC(=O)OCC1(O)C(Nc2cccc(C(C)=O)c2)C(N)C(NC(=O)N(C)C)(C(C)OC(C)=O)C1(C)O` (centres unmarked) is reported as 10.2 µM (cell growth or viability, SRB).
With `CC(=O)OC[C@H]1O[C@@H](Sc2sc(C(=O)c3ccc(Br)cc3)c(N)c2-c2nc3ccccc3s2)[C@H](OC(C)=O)[C@@H](OC(C)=O)[C@@H]1OC(C)=O` the growth was 18.6% (SRB; 10 µM, 48 h; reference: untreated).
The GI50 of `Fc1cccc(CNc2nc(NCc3ccccc3)c3ccccc3n2)c1` is reported as 3.4 µM (cell growth or viability; 24 h).
`CC/C=C\C/C=C\C/C=C\C/C=C\C/C=C\C/C=C\CCC(=O)Nc1ccn(C2OC(CO)C(O)C2(F)F)c(=O)n1` (centres unmarked) has a TGI of 25.3 µM (NCI60 screen).
`COc1cc(CNC(=O)C[C@H](C)CCC=C(C)C)ccc1OCc1cn(-c2ccccc2[N+](=O)[O-])nn1` gave a growth percent of 62.4% (SRB; 10 µM, 48 h).
The growth of `CC(=O)OC[C@H]1O[C@@H](Sc2sc(C(=O)c3ccc(C)cc3)c(N)c2-c2nc3ccccc3s2)[C@H](OC(C)=O)[C@@H](OC(C)=O)[C@H]1OC(C)=O` is reported as 92.5% (SRB; 10 µM, 48 h; reference: untreated).
For `COc1cc(/C=C/C(=O)/C=C(O)/C=C/c2ccc(OCC(=O)N3CCOCCOCCOCCOCC3)c(OC)c2)ccc1OCC(=O)N1CCOCCOCCOCCOCC1`, the inhibition was 18.1% (cell growth or viability, SRB; 5 µM).
The growth percent of `COc1cc(CNC(=O)C[C@H](C)CCC=C(C)C)ccc1OCc1cn(-c2cccc(Cl)c2)nn1` is reported as 81.4% (SRB; 10 µM, 48 h).
`Brc1cccc(CNc2nc(NCc3ccccc3)c3ccccc3n2)c1` gave a GI50 of 3.5 µM (cell growth or viability; 72 h).
With `COc1cc(CNC(=O)C[C@H](C)CCC=C(C)C)ccc1OCc1cn(-c2ccc(Cl)c(Cl)c2)nn1` the growth percent was 29.4% (SRB; 10 µM, 48 h).
`COc1cccc2c(NCc3ccccc3)nc(Nc3cccc(Cl)c3)nc12` has a GI50 of 29 µM (cell growth or viability; 24 h).
`COc1cc(CNC(=O)C[C@H](C)CCC=C(C)C)ccc1OCc1cn(-c2ccc(F)cc2)nn1` gave a growth percent of 91.7% (SRB; 10 µM, 48 h).
`CCC(=C(c1ccc(Cl)cc1)c1ccc(OCCCN(C)C)cc1)c1ccc(OC)cc1` gave a GI50 of 1.44 µM (cell growth or viability, SRB).
With `COc1cc(CNC(=O)C[C@H](C)CCC=C(C)C)ccc1OCc1cn(-c2cccc([N+](=O)[O-])c2)nn1` the growth percent was 80.9% (SRB; 10 µM, 48 h).
`COc1ccc2c(c1)/C(=N\Nc1nnc3n1N=C(c1ccccc1)CS3)C(=O)N2` has an inhibition of 10% (cell growth or viability, SRB; 10 µM).

Excerpt of the above:
The GI50 of `Fc1cccc(CNc2nc(NCc3ccccc3)c3ccccc3n2)c1` is reported as 3.4 µM (cell growth or viability; 24 h).
